Experimental data from different studies.
A part holds a random share of what one study measured. Positions count from the first letter of the parent shown.

Set 1 — target: CEBPE, bZIP domain (human); technique: DHFR protein complementation; matrix: yeast; reference: wild-type JUN-FOS pair; direction: higher = stronger binding; endpoint: binding fitness
Notes: single substitutions, most at no-binding floor
Starting sequence: JUN, bZIP domain (human); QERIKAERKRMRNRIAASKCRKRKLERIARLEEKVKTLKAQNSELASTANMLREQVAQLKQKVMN; partner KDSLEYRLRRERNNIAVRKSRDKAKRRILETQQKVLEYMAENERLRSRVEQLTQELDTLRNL
S43I: -0.977 natural log
T48Q: -0.918 natural log
R53P: -1.49 natural log
K36G: -1.32 natural log
T48L: -1.12 natural log
Q55D: -1.5 natural log
L38K: -1.6 natural log
L31M: -1.21 natural log

Set 2 — technique: protein-binding microarray; molecule type: hairpin DNA; matrix: in vitro; tested at: not given; reference: not given; direction: higher = stronger binding; endpoint: median fluorescence
Target: Runt-related transcription factor 1, full length (RUNX1, Homo sapiens, UniProt Q01196-8, residues 1-480)
Notes: whole hairpin DNA, median over replicate spots
CTCAGTTCTGTAGGCTGGACTCCTGTCCAGCCTACAGAACTGAGACACTC: 1640 a.u.
GAGGCCCAACCGCAAGAGCCTCCTGGCTCTTGCGGTTGGGCCTCACACTC: 7420 a.u.
GAGGCCTGTTGCGTTTGGCCTCCTGGCCAAACGCAACAGGCCTCACACTC: 1700 a.u.
GAGGCCCAACCGCCGCAGCCTCCTGGCTGCGGCGGTTGGGCCTCACACTC: 2930 a.u.
CAGGCCTGTCGCGGTTGGCCTCCTGGCCAACCGCGACAGGCCTGACACTC (5mC at 1): 2590 a.u.
GAGGCCTGTTCGGGTTGGCCTCCTGGCCAACCCGAACAGGCCTCACACTC (5mC at 11): 1800 a.u.
GAGGCCTGTTGTGGCTGGCCTCCTGGCCAGCCACAACAGGCCTCACACTC: 2030 a.u.
CTCAGTCGTGTGGGCTGGACTCCTGTCCAGCCCACACGACTGAGACACTC: 1860 a.u.

Set 3 — technique: RNAcompete; molecule type: RNA; matrix: in vitro; tested at: 20 nM; notes: 7-mer, probes averaged, single round; reference: mean of 7-mers; direction: higher = stronger binding; endpoint: 7-mer Z-score
Target: PABPC1L2, full length, GST fusion (mouse, UniProt A0ABA7IW68)
Target sequence (chain): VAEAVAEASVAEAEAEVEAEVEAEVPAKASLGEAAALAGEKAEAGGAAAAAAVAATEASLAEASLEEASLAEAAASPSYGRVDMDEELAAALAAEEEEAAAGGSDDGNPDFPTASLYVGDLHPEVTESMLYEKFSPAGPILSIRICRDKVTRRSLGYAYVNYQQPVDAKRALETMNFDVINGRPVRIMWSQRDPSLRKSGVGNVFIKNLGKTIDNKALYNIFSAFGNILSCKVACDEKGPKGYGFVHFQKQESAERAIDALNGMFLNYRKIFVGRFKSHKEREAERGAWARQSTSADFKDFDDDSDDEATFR
GUUAAGU: -0.231
GGUCAGC: -0.117
CGCGGUC: -0.291
CAUCCGC: -0.416
CAUCCCG: -0.224
CAGAUCC: -0.0246
CUAUUUA: 0.233
CUUCUGC: -0.315

Other studies, line by line
LTDEQKNAV — binding (HLA class I histocompatibility antigen, A alpha chain, allele A*80:01 (Homo sapiens, UniProt P04439); peptide-MHC binding; peptide; concentration not given): inactive

Excerpt of the above (set 2):
GAGGCCCAACCGCCGCAGCCTCCTGGCTGCGGCGGTTGGGCCTCACACTC: 2930 a.u.
